Measured values collected from several papers.
Protocols differ between the studies behind these lines. ± gives the spread as reported.
SLCO1B1 N130D/P155T: Solute carrier organic anion transporter family member 1B1 (SLCO1B1, Homo sapiens, UniProt Q9Y6L6, N130D/P155T)
Chain of UniProt Q9Y6L6 (whole entry, unmodified, looked up): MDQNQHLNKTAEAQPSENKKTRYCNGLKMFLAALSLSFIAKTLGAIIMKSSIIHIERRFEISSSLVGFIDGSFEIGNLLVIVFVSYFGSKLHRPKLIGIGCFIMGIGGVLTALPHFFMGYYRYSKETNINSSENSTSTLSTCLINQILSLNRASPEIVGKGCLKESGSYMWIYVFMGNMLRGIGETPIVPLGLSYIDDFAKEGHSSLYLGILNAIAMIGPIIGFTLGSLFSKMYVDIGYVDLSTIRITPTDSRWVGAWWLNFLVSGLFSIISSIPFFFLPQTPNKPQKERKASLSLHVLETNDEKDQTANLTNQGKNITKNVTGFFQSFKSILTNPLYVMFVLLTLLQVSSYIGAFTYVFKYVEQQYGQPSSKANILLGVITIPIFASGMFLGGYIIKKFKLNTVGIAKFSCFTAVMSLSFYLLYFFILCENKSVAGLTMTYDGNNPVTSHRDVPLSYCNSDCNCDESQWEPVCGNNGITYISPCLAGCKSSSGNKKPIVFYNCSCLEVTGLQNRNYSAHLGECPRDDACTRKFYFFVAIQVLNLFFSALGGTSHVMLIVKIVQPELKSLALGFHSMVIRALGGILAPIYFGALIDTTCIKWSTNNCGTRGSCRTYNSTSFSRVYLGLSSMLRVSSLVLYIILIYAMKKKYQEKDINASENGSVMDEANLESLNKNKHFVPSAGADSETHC
Chain of UniProt P10635 (whole entry, looked up): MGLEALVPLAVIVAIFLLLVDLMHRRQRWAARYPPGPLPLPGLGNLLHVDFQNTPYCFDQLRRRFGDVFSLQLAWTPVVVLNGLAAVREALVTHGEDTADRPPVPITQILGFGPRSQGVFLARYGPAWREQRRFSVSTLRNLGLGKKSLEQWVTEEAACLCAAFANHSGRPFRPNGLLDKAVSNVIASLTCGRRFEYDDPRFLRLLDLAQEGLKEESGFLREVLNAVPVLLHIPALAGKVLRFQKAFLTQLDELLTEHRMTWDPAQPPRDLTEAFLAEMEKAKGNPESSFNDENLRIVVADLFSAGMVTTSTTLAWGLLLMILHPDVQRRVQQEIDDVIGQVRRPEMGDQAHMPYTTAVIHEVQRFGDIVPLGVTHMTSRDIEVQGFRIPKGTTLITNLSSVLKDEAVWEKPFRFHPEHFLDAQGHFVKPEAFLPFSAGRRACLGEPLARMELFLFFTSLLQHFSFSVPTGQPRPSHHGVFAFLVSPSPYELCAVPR

`O=C(O)CCCC1C2CCCN3CCCC(CN1S(=O)(=O)c1ccc(Cl)cc1)C23` (stereo not shown) has a CC50 of 200 µM (HEK293T).
For `Cc1cc([N+](=O)[O-])nc2c1NC(=O)c1cccnc1N2C1CC1`, fold change read “no effect” (primary human hepatocytes; CYP3A4 activity, inducer; 100 µM, 72 h, with: midazolam 1'-hydroxylation; relative to: untreated).
`COC(=O)CCCC1C2CCCN3CCCC(CN1Cc1ccc(Cl)c(Cl)c1)C23` (stereo not shown) gave a CC50 of over 200 µM (HEK293T).
With `C[C@@](O)(C(F)F)[C@H](NC(=O)c1ccc(C#CC#CC2CC2)cc1)C(=O)NO` the clearance was 26 mL/min/kg (dog, plasma; intravenous, 30 mg/kg).
The uptake ratio of `CC(CCC(=O)NCC(=O)O)C1CCC2C3C(O)CC4CC(OC5OC(C(=O)O)C(O)C(O)C5O)CCC4(C)C3CCC12C` (stereo not shown) is reported as 157 ± 6.4 (SLCO1B1 N130D/P155T; substrate; HEK293 expressing OATP1B1 variant; 1 µM, 2 min; relative to: wild-type HEK293 cells).
With `O=C(O)CCC(NP(=O)(O)OCCC[C@@H](NC(=O)CCC(NC(=O)c1ccc([18F])cc1)C(=O)O)C(=O)O)C(=O)O` (stereo partly shown) the tracer uptake was 0.46 %ID/g (CWR22Rv1 tumour model; host not given, bone; intravenous, 1 h, tumour-bearing).
`CCOC(=O)CC[C@@H](NC(=O)c1ccc(N(C)Cc2ccc3[nH]c(C)nc(=O)c3c2)s1)C(=O)OCC`: “uptake from medium” 74.6 ± 6.7% (Mycobacterium tuberculosis; H37Rv; 10 µM, 24 h).
The CC50 of `COC(=O)CC1C2CCCN3CCCC(CN1C(=O)c1ccc(Cl)cc1)C23` (stereo not shown) is reported as over 200 µM (HEK293T).
The tracer uptake of `COc1cc(C(=O)NCCOCCOCCOCCNC(=O)c2ccc([18F])nc2)ccc1NC(=O)C1NC(CC(C)(C)C)C(C#N)(c2ccc(Cl)cc2F)C1c1cccc(Cl)c1F` (stereo not shown) is reported as 1.73 %ID/g (SJSA-1 tumour model; host not given, kidney; 2 h, tumour-bearing).
`Cc1cccc2c1NC(=O)C2=Cc1ccc(-c2cccc(C(=O)N3CCCN(C)CC3)c2)o1` (mixture of isomers) gave an efflux ratio of 1.61 (MDCK-MDR1 cells).
For `COc1ccc(CNc2nc(N3CCC[C@H]3CO)ncc2C(=O)NNC(=O)c2cnc(N3CCC[C@H]3CO)nc2NCc2ccc(OC)c(Cl)c2)cc1Cl`, the revertant count was 32 ± 2 (Salmonella typhimurium; TA1535; 62.5 µg/plate, 48 h, with: rat liver S9).
With `CC[C@H](C)[C@H](NC(=O)[C@H](CC(=O)O)NC(=O)[C@@H](NC(=O)[C@@H]1CCCN1C(=O)[C@@H](N)CCCNC(=N)N)[C@@H](C)O)C(=O)N[C@@H](CCCCN)C(=O)N[C@H]1CSSC[C@@H]2NC(=O)[C@H](CCCNC(=N)N)NC(=O)CNC(=O)[C@H](CC(N)=O)NC(=O)[C@H]([C@@H](C)O)NC(=O)[C@H](CCCCN)NC(=O)CNC(=O)[C@H](Cc3ccccc3)NC(=O)[C@H](CCCNC(=N)N)NC(=O)[C@H](CO)NC(=O)[C@H](CCCCN)NC(=O)[C@@H]3CSSC[C@@H](C(=O)N[C@@H](Cc4ccccc4)C(=O)O)NC(=O)[C@H](CC(=O)O)NC(=O)[C@H](CSSC[C@H](NC(=O)[C@H](CCC(N)=O)NC(=O)[C@H](Cc4ccc(O)cc4)NC(=O)[C@H](CO)NC(=O)[C@H](CCC(=O)O)NC(=O)[C@H](CO)NC1=O)C(=O)N[C@@H](Cc1ccccc1)C(=O)N1CCC[C@H]1C(=O)N[C@@H](C(C)C)C(=O)N3)NC(=O)[C@H](Cc1ccccc1)NC(=O)CNC(=O)[C@H](CC(N)=O)NC(=O)[C@H](C(C)C)NC2=O` the Hill coefficient was 0.8 ± 0.1 (KCNH2 (Homo sapiens, UniProt Q12809, S631C); potassium current, two-electrode voltage clamp; Xenopus laevis oocytes).
`CC[C@H](C)C(=O)N1CCC(NC(=O)Nc2ccc(OC(F)(F)F)c(F)c2)CC1` has an AUC(0-t) of 6780 ng·h/mL (human, plasma; oral, 16 mg, single dose, healthy volunteers).
`O=C1C(Cl)=C(Cl)C(=O)c2ccccc21` gave a viability of 80% (CRFK; cell growth or viability; 25 µM, 72 h).
For `CCN(CC)Cc1cc(Nc2c(C)cnc3cc(Cl)ccc23)ccc1O`, the CC50 was 44.6 ± 2.98 µM (BHK-21 DENV2 replicon cells; 24 h).
`CN[C@](C)(C[18F])C(=O)O` gave a tracer uptake of 2.8 %ID/g (A549 tumour model; host not given, heart; 2 h, tumour-bearing).
For `C=CC(=O)Nc1cc(Nc2nccc(-c3cn(C)c4ccccc34)n2)c(OCC(F)(F)F)nc1N(C)CCN(C)C`, the remaining activity was 102% (Cytochrome P450 2D6 (CYP2D6, Homo sapiens, UniProt P10635); dextromethorphan O-demethylation, inhibitor; human liver microsomes; 1 µM).
`O=C(O)CCC(NP(=O)(O)OCCC[C@@H](NC(=O)CCC(NC(=O)CCCCCNC(=O)CCCCCNC(=O)c1ccc([18F])cc1)C(=O)O)C(=O)O)C(=O)O` (stereo partly shown) has a tracer uptake of 0.45 %ID/g (CWR22Rv1 tumour model; host not given, bone; intravenous, 1 h, tumour-bearing).
`CC(CCC(=O)NCC(=O)O)C1CCC2C3CCC4CC(OC5OC(C(=O)O)C(O)C(O)C5O)CCC4(C)C3CC(O)C12C` (stereo not shown) has an uptake ratio of 142 ± 5 (SLCO1B1 N130D/P155T; substrate; HEK293 expressing OATP1B1 variant; 1 µM, 2 min; relative to: wild-type HEK293 cells).
For `CC[C@H](C)[C@H](NC(=O)[C@H](CC(=O)O)NC(=O)[C@@H](NC(=O)[C@@H]1CCCN1C(=O)[C@@H](N)CCCNC(=N)N)[C@@H](C)O)C(=O)N[C@@H](CCCCN)C(=O)N[C@H]1CSSC[C@@H]2NC(=O)[C@H](CCCCNC(=O)CCc3cn(CCOCCOCCOCCOCCOCCNC(=O)CCCCC[N+]4=C(/C=C/C=C/C=C5/N(C)c6ccccc6C5(C)C)C(C)(C)c5ccccc54)nn3)NC(=O)CNC(=O)[C@H](CC(N)=O)NC(=O)[C@H]([C@@H](C)O)NC(=O)[C@H](CCCCN)NC(=O)CNC(=O)[C@H](Cc3ccccc3)NC(=O)[C@H](CCCNC(=N)N)NC(=O)[C@H](CO)NC(=O)[C@H](CCCCN)NC(=O)[C@@H]3CSSC[C@@H](C(=O)N[C@@H](Cc4ccccc4)C(=O)O)NC(=O)[C@H](CC(=O)O)NC(=O)[C@H](CSSC[C@H](NC(=O)[C@H](CCC(N)=O)NC(=O)[C@H](Cc4ccc(O)cc4)NC(=O)[C@H](CO)NC(=O)[C@H](CCC(=O)O)NC(=O)[C@H](CO)NC1=O)C(=O)N[C@@H](Cc1ccccc1)C(=O)N1CCC[C@H]1C(=O)N[C@@H](C(C)C)C(=O)N3)NC(=O)[C@H](Cc1ccccc1)NC(=O)CNC(=O)[C@H](CC(N)=O)NC(=O)[C@H](C(C)C)NC2=O`, the IC50 was 80.5 nM (KCNH2 (Homo sapiens, UniProt Q12809); ion current, inhibitor, two-electrode voltage clamp; pH 7.4, oocytes).
`CN(C)CC1CCCCC1(O)c1cccc(O)c1` (stereo not shown): “Papp B to A” 15 ± 0.3 ×10⁻⁶ cm/s (P-glycoprotein; Caco-2 TC7; 10 µM, 3 h, pH 7.4, with: cyclosporin A 10 µM).
`O=C(O)CCC(NP(=O)(O)OCCC[C@@H](NC(=O)CCC(NC(=O)CCCCCNC(=O)c1ccc([18F])cc1)C(=O)O)C(=O)O)C(=O)O` (stereo partly shown) gave a tracer uptake of 0.84 %ID/g (CWR22Rv1 tumour model; host not given, spleen; intravenous, 2 h, tumour-bearing).
`COc1ccc(CNc2nc(N3CCC[C@H]3CO)ncc2C(=O)NN)cc1Cl` has a revertant count of 185 ± 9 (Salmonella typhimurium; TA97a; 500 µg/plate, 48 h, with: rat liver S9).
`CCC(=O)N(C)c1ccc(Cl)c(Cl)c1` gave a revertants of 0 revertants/plate (Salmonella typhimurium; Ames test; TA1535; 5.00 mg/plate, without S9 activation).
For `CCC1CN2CCC3(O)C(=Nc4cccc(OC)c43)C2CC1C(=COC)C(=O)OC` (stereo not shown), the IC50 was over 100000 nM (UDP-glucuronosyltransferase, rat; 4-MU glucuronidation, inhibitor; rat liver microsomes; 30 min, pH 7.4, with: 4-methylumbelliferone 100 µM).

Excerpt of the above:
`O=C(O)CCCC1C2CCCN3CCCC(CN1S(=O)(=O)c1ccc(Cl)cc1)C23` (stereo not shown) has a CC50 of 200 µM (HEK293T).
For `Cc1cc([N+](=O)[O-])nc2c1NC(=O)c1cccnc1N2C1CC1`, fold change read “no effect” (primary human hepatocytes; CYP3A4 activity, inducer; 100 µM, 72 h, with: midazolam 1'-hydroxylation; relative to: untreated).
`COC(=O)CCCC1C2CCCN3CCCC(CN1Cc1ccc(Cl)c(Cl)c1)C23` (stereo not shown) gave a CC50 of over 200 µM (HEK293T).
